Measured values pooled from the literature.
A part holds a random share of what one study measured. Changes are numbered by the printed parent chain.

Study 1
Target: Interferon regulatory factor 7, full length, phosphomimetic (IRF7, Homo sapiens, UniProt Q92985, residues 1-503, S471D/S472D/S475D/S476D/S477D/S483D/S484D/S487D)
Method: protein-binding microarray
Molecule type: double-stranded DNA, one strand shown
Medium: in vitro
Tested at: 2200 nM top
Notes: 60-bp whole probe
Together with: salmon DNA 0.4 mg/ml
Relative to: random background probes
Direction: higher = stronger binding
All sequences stand within: GCCTAGCAC … GTCTTGATTCGCTTGACGCTGCTG
Target sequence (chain): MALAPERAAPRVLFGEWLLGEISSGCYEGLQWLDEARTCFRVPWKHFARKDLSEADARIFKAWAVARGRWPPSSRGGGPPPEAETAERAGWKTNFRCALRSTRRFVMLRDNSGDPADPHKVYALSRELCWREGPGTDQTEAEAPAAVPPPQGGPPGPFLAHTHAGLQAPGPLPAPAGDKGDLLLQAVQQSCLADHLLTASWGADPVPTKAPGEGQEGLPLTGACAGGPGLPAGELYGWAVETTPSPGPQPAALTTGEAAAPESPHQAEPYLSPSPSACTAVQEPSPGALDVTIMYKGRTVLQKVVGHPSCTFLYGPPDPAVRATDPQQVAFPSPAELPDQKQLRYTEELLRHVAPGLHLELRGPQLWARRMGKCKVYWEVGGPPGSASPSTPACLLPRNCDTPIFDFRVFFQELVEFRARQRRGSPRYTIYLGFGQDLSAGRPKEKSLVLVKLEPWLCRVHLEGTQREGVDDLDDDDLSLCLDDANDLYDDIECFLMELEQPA
Strand	fitted relative affinity [z-score]
GACGGTATCCTTATCCTGCCGTGCTAG	0.687
TCAGGTTTCGGTCTCGGTTAGTGCTAG	6.93
GACAGTTTCCTTATCCTGACGTGCTAG	3.32
TCAGCTTCTTTTTTATTACTGTGCTAG	0.788
GACGGAATGCTTTTCCTGACGTGCTAG	0.749
TTTTTTTTACTTCGGGTGACGTGCTAG	1.37
TCCCTTATAAATAGCACAGGGTGCTAG	0.304
AGTGTTACCCCTCATCAACCAGTGCTA	1.08
GTCATTCTCAACCCTGGTGCTGTGCTA	0.821
TCACTTCTCTTTTTGCTACTGTGCTAG	3.24
TTAGGTATCTGGTTTCGGTTAGTGCTA	5.94
TGAGTCTTCCCTTTTAAGTTGTGCTAG	1.43
TTAGATATCGGGGCTGGATTAGTGCTA	-0.164
GACGGTCTCCTACTACTGACGTGCTAG	0.867
TCACATTTTCGTTTTGTACTGTGCTAG	12
GACGGTCTCCCTCTCCTGACGTGCTAG	0.451

Study 2
Target: Ras GTPase-activating protein-binding protein 1, full length (G3BP1, Homo sapiens, UniProt Q13283)
Sequence of UniProt Q13283 (whole entry, looked up): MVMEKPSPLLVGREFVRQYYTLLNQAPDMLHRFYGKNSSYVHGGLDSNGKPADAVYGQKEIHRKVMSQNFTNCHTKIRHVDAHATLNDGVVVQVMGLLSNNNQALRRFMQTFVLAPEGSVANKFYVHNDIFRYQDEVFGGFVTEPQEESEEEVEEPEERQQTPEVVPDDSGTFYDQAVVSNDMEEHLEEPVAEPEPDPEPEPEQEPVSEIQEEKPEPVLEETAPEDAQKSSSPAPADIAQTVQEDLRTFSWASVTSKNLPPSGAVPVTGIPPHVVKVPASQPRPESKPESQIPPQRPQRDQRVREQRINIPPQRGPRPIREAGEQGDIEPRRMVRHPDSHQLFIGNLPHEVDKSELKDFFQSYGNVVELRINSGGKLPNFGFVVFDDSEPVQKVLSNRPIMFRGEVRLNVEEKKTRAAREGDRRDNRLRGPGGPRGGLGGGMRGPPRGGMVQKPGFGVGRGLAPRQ
Method: RNA Bind-n-Seq
Molecule type: RNA
Medium: in vitro
Tested at: 200 nM
Notes: whole 134-nt RNA, ends assumed
Together with: 150 mM KCl
Relative to: input library
Direction: higher = stronger binding
All sequences stand within: GGGAGUUCUACAGUCCGACGAUC … UGGAAUUCUCGGGUGUCAAGG
Strand	log2 enrichment
AGUCCUGUGCUACACAUCGUAUGUACCGAAUCGGGGAAAAGGGGAAAAGGAAAAGGGAAAGUAUUAUGUUACGCCGUUCGGAUCUGCACU	-0.345
AGUCCUGUGCUACACAUCGUAUGUACCGAAUCAAAUUUUUAAACCCAAAUUUUUAAAAAAGUAUUAUGUUACGCCGUUCGGAUCUGCACU	-0.609
GCAGGAAGUAAAAACAAAUGGAAAUGCUUCGGAUAGUGGCAGGGGUGGGGGUUGCUAAGGAAAGGGUGGGAUGGGAGUGGCUAAAGAGUU	0.885
CCUGUGCUACACAUCGUAUGUACCGAAUCGGGCCCCCCCGGCCCCCCCGGCCCCCCCGGGGAAAGUAUUAUGUUACGCCGUUCGGAUCUG	-0.195
UCCUGUGCUACACAUCGUAUGUACCGAAUCGGGGCCCCCGGGGCCCCCGGCCCCCGGGGAAAGUAUUAUGUUACGCCGUUCGGAUCUGCA	-0.33
GCAGGAAGUAAAAACAAAUGGAUAUGCUUCGGAUAGUGGCAGGGGUGGGGGUUGCUAAGGAAAGGGUGGGAUGGGAGUGGGUAAAGAGUU	0.786
UGUGCUACACAUCGUAUGUACCGAAUCGGGAAAAAAAGGGGAAAAAAAGGGAAAAAAAGGGGAAAGUAUUAUGUUACGCCGUUCGGAUCU	-0.552
CCUCAAGUCCUGUGCUACACAUCGUAUGUACCGAAUCGGUGGAAAAAGGUGGAAAGUAUUAUGUUACGCCGUUCGGAUCUGCACUUCCAG	-0.035
CUGUGCUACACAUCGUAUGUACCGAAUCGGAAAAAAAGGGGAAAAAAAGGAAAAAAAGGGGAAAGUAUUAUGUUACGCCGUUCGGAUCUG	-0.991
GGCACAGGUGCCCGACCAUACACUGGGAAAGUUGGUGCUGAGGAUGCCGAUGGGAUUGACAUGGCCUACCGGGUGCUGGCUGACCACGCU	-1.06
CCUCAAGUCCUGUGCUACACAUCGUAUGUACCGAAUCGGGGAGGGAGGGAGGGAAAGUAUUAUGUUACGCCGUUCGGAUCUGCACUUCCA	1.14
CCUGUGCUACACAUCGUAUGUACCGAAUCGGAAAAAAAGGAAAAAAAGGGGAAAAAAAGGAAAGUAUUAUGUUACGCCGUUCGGAUCUGC	-0.843
ACCAUGCAGGUGGGCAUCUUUGGGAAGUGGGGCAAGGGGGGGAUAGGGAGGGGGGAAACACUUUGGGAACAGGUGGUCCCAGGUCGUUUC	1.39
GUCCUGUGCUACACAUCGUAUGUACCGAAUCGGGAAAAAAAGGGAAAAAGGGUUUGGGAAAGUAUUAUGUUACGCCGUUCGGAUCUGCAC	-0.48

Study 3
Target: CCNE2, cyclin fold, Cln2 fusion (human)
Method: yeast growth competition, sequencing
Medium: yeast
Notes: strong parent motif
Relative to: not given
Direction: higher = stronger binding
Starting sequence: CDC25A docking peptide (human); PPHRRRLLFACSP
Substitution	normalised enrichment score
R6E	0.393
H3D	1.35
R4W	1.16
H3V	4.34
P13K	1.88
L7T	1.12
C11K	1.28
P13M	1.55
L7I	1.83
P1Y	2.32
P13D	3.06
R5L	1.73
P1L	1.48
L8K	2.25
L8A	1.92
C11V	2.25
F9E	1.09
R5T	0.822
R6C	0.502
L7A	0.866
F9Y	1.15
R5Y	0.522
F9L	0.944
L8D	3.81
S12T	2.15

Study 4
Target: Prothrombin, mature alpha-thrombin (F2, Homo sapiens, UniProt P00734)
Method: aptamer microarray, sandwich
Molecule type: DNA with 2'F-ANA
Medium: in vitro
Tested at: 200 nM
Notes: whole 15-mer aptamer, many near background
Together with: Cy3 exosite-II aptamer, 400 nM
Direction: higher = stronger binding
Strand: GGTTGGTGTGGTTGG
Modification	mean fluorescence intensity
2'F-ANA at 2 3 5 8 10 11 13	52.3 a.u.
2'F-ANA at 2 3 4 5 6 8 10 11 12 13 15	50.4 a.u.
2'F-ANA at 2 4 6 8 10 12	108 a.u.
2'F-ANA at 3 7 8 9 10 12 13 15	748 a.u.
2'F-ANA at 1 2 4 5 6 7 8 9 10 11 12 15	103 a.u.
2'F-ANA at 1 6 7 8 10 15	56.9 a.u.
2'F-ANA at 1 2 3 4 5 9 10 14 15	45 a.u.
2'F-ANA at 2 3 4 5 9 11 12	165 a.u.
2'F-ANA at 1 3 4 7 8 13	200 a.u.
2'F-ANA at 2 4 9 12 13 14 15	96.4 a.u.
2'F-ANA at 2 6 7 10 11 12 13 14 15	113 a.u.
2'F-ANA at 2 3 4 6 9 11 12 13 14	216 a.u.
2'F-ANA at 1 2 7 8 9 10 11 15	73.5 a.u.
2'F-ANA at 2 3 5 7 8 9 10 13 14 15	50.9 a.u.
2'F-ANA at 3 4 5 8 9 14 15	48.3 a.u.
2'F-ANA at 1 2 7 8 9 10 12 15	72.9 a.u.
2'F-ANA at 1 2 3 5 8 9 11 12 13 15	72.7 a.u.
2'F-ANA at 1 2 4 5 6 7 11 13 15	50.8 a.u.
2'F-ANA at 1 2 6 8 9 11 12 13	202 a.u.
2'F-ANA at 1 2 5 7 8 11 14 15	50.7 a.u.
2'F-ANA at 1 2 7 8 9 10 12 13 14	50.3 a.u.
2'F-ANA at 1 2 4 9 11 12 13 14 15	73.2 a.u.
2'F-ANA at 1 2 3 4 6 7 8 12 14 15	154 a.u.

Study 5
Target: ABI1, truncated, D143A, DHFR fusion (Arabidopsis thaliana)
Method: DHFR PCA, deep sequencing
Medium: yeast
Notes: methotrexate growth selection, single substitutions
Together with: (+)-ABA 0.39 µM
Relative to: wild-type fitted maximum
Direction: higher = stronger binding
Starting sequence: PYL1, truncated, DHFR fusion (Arabidopsis thaliana); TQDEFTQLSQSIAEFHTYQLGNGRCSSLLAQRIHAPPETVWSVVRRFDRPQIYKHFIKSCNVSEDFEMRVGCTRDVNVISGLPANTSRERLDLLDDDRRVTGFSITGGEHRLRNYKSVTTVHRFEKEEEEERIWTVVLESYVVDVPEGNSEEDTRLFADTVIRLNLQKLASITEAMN
Substitution	relative binding score [%]
P83A	25.2
Q7L	33.1
I162D	7.65
V78Q	-5.31
Q167H	23.5
K168S	47.2
R123I	-2.61
T154S	-7.69
R24Q	72.1
T160L	17.8
K168H	45.5
V121I	20.1
T106R	-3.71
G23D	19.3
M176E	19
R46W	-7.68
N177A	67.8

Study 6
Target: Histone acetyltransferase KAT6A, both winged helices, GST fusion (KAT6A, Homo sapiens, UniProt Q92794, residues 1-181)
Method: protein binding microarray
Molecule type: double-stranded DNA, one strand shown
Medium: in vitro
Tested at: not given
Notes: 8-mer, flanks averaged, mean of 2 arrays, mostly near background
Relative to: not given
Direction: higher = stronger binding
Construct (chain): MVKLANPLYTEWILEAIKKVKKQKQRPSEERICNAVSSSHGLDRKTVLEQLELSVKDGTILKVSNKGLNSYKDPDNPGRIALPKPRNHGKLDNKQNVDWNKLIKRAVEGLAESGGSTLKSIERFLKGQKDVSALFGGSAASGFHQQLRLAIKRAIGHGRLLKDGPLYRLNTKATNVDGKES
Strand	E-score
ATATGTAA	-0.0827
CAATTGTG	-0.0474
GAATTGAC	-0.153
ATGGGCAG	0.00207
ACTCTGTG	-0.17
CGGACCTA	0.0109
AAGGTACA	-0.219
TATAGCGA	0.022
GCCCTCAC	-0.0487
AAGCGTGC	0.186
AAAGAAAG	-0.159
ACTCGTCG	-0.116
GCTTGTCA	0.108
GTGCGTCA	0.127
CTACCGGC	0.209
GTATCCAA	-0.038

Excerpt of the above (study 1):
Strand	fitted relative affinity [z-score]
GACGGTATCCTTATCCTGCCGTGCTAG	0.687
TCAGGTTTCGGTCTCGGTTAGTGCTAG	6.93
GACAGTTTCCTTATCCTGACGTGCTAG	3.32
TCAGCTTCTTTTTTATTACTGTGCTAG	0.788
GACGGAATGCTTTTCCTGACGTGCTAG	0.749
TTTTTTTTACTTCGGGTGACGTGCTAG	1.37
TCCCTTATAAATAGCACAGGGTGCTAG	0.304
AGTGTTACCCCTCATCAACCAGTGCTA	1.08
GTCATTCTCAACCCTGGTGCTGTGCTA	0.821
TCACTTCTCTTTTTGCTACTGTGCTAG	3.24
TTAGGTATCTGGTTTCGGTTAGTGCTA	5.94
TGAGTCTTCCCTTTTAAGTTGTGCTAG	1.43
TTAGATATCGGGGCTGGATTAGTGCTA	-0.164
GACGGTCTCCTACTACTGACGTGCTAG	0.867
TCACATTTTCGTTTTGTACTGTGCTAG	12
GACGGTCTCCCTCTCCTGACGTGCTAG	0.451
